# Published values from different studies.
# Each numbered part is a random draw from the data of one study; scales do not carry over between parts.

# Sample 1
# Target: UBE2L3 UBC core domain (UniProt P68036)
# Chain of UniProt P68036 (whole entry, looked up): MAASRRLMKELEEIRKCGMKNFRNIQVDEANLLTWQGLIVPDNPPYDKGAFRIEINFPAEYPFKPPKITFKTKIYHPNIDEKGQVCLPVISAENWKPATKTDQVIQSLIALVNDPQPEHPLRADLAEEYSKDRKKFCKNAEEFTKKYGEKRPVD
# Method: yeast two-hybrid
# Medium: yeast
# Notes: mostly zero background
# Baseline: not given
# Reading: higher = stronger interaction
# B1: TRIM22 RING domain (UniProt Q8IYM9); chain VKVDIEKEVTCPICLELLTEPLSLDCGHSFCQACITAKIKESVIISRGESSCPVCQTRFQPGNLRP
# B2: TRIM60 RING domain (UniProt Q495X7); chain ALVNLQEESSCPICLEYLKDPVTINCGHNFCRSCLSVSWKDLDDTFPCPVCRFCFPYKSFRR
# B3: MKRN2 RING domain (UniProt Q9H000); chain FAFQASQDKVCSICMEVILEKASASERRFGILSNCNHTYCLSCIRQWRCAKQFENPIIKSCPECRVISEFVIPSV
# B4: RNF122 RING domain (UniProt Q9H9V4); chain AKKLQLYGQTCAVCLEDFKGKDELGVLPCQHAFHRKCLVKWLEVRCVCPMCNKPIASPSEAT
# B5: ANAPC11 RING domain (UniProt Q9NYG5); chain GICRMAFNGCCPDCKVPGDDCPLVWGQCSHCFHMHCILKWLHAQQVQQHCPMCRQEWKFKE
# B6: RNF166 RING domain (UniProt Q96A37); chain GDSGLEAQYTCPICLEVYHRPVAIGSCGHTFCGECLQPCLQVPSPLCPLCRLPFDPKKVDK
# B7: MYCBP2 RING domain (UniProt O75592); chain TSLKQDADDMCMICFTEALSAAPAIQLDCSHIFHLQCCRRVLENRWLGPRITFGFISCPICKNKINHIVLKD
# B8: RNF152 RING domain (UniProt Q8N8N0); chain ETLSQDSLLECQICFNYYSPRRRPKLLDCKHTCCSVCLQQMRTSQKDVRCPWCRGVTKLPPGFS
Molecule,lacZ reporter activity
B1 (TRIM22 RING domain),0
YCEMGSTFQLCKICAENDKDVKIEPCGHLMCTSCLTAWQESDGQGCPFCRCEIKGTEPII (CBLB RING domain (UniProt Q13191)),0
B2 (TRIM60 RING domain),0
B3 (MKRN2 RING domain),0
AEADPLGRFTCPVCLEVYEKPVQVPCGHVFCSACLQECLKPKKPVCGVCRSALAPGVRAV (RNF114 RING domain (UniProt Q9Y508)),0
B4 (RNF122 RING domain),0
B5 (ANAPC11 RING domain),0
B6 (RNF166 RING domain),0
LGTKLEAKYLCSACRNVLRRPFQAQCGHRYCSFCLASILSSGPQNCAACVHEGIYEEGIS (TRAF2 RING domain (UniProt Q12933)),0
B7 (MYCBP2 RING domain),0
B8 (RNF152 RING domain),0

# Sample 2
# Target: RNA binding protein fox-1 homolog 2, RRM domain, GST-SBP tag (RBFOX2, Homo sapiens, UniProt O43251-10, residues 100-194)
# Method: RNA Bind-n-Seq
# Form: RNA
# Medium: in vitro
# Tested at: 365 nM
# Notes: natural RNA segment, single round, ends assumed
# Baseline: no-protein control
# Reading: higher = stronger binding
# Constant ends, left off below: GGGAGUUCUACAGUCCGACGAUC … UGGAAUUCUCGGGUGCCAA
# Residues (chain): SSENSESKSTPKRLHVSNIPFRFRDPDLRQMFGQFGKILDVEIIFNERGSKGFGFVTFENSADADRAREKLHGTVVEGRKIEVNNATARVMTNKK
Strand,RBNS enrichment (R)
UCCAGGCAAGGAAAACUGAAGUCAUUGGCCCGAUACAAAACAUUUCCUGCAACGAAGGAGGUGGUGCCGACGUGCUGCUUCCCAUCACCAGCAGCUGCUCGACAAGGGGC,0.45
AUUCAGCCUCAGUAGUAGCGAACUGCACUGCUGUUUGGUUUGGAGUACAAAUUAGACUUAUAGUCCUCCUGGAACUUGAGUUAUUAAAAUCAUAGGAAUAAAAUUAUGGG,0.307
AUUCCUGCUUCAUUUCCUUUUCUCAAGGGCCGCUUCCCCGGACCCUCCUGUCAUAGGCCCCACUUGGUGCUAUUUGUGGUGCUGGCUCAGGCGUGGGGCUGCCAGGCUCG,1.74
GAGAAUAUAUAUUGUACUGUAGUAAUUUUGUAUUUACAUUUGUAUGAUGUGACAUAAUAGAUGUGAAUGUUAAUCACUGCUUGACUAUGUUAAUAAAGUUGUUUAACUAU,0.379
GCACUAGGUGUUUGGAGGUGAGCUAGGAAGACCAGUGGUAUGUUGAGCCCCUUACAGAUAAGCACCGGUGUCUCUUUGGUGCACCUUGCCUUCAGAUGCUCCUGGUGGUC,1.32
CAUGACACCCGACUUCGCCCUCAGCUUUCCACCCCGACCCUCCCACUACAUCUCAAGUGUUACAGACUCCCCUCCCGCUCUUUCUUGGGGAAGAGGGGGUGGGUAAGCGC,0.489
AUGGACCAGUUUCAGGGUGCGGGAGGUGCUGAACCUUUUCUGGCCACAAACCAUUAUAAAACCCAACAUAUAUACUGAAAAUACUGAGAACUGCUUUGAAAAUUUGGAAU,0.526
UCCUCACGCUGCAGACGCCCCCUAGAGGAACUUUCCUUCCUUUCCAGCAUUCCCCACAGCACUGCCGGCCAGGGGAGAGGCGGCAGCCCAGCAGAGGGCUCUAUGCACGG,0.797

# Sample 3
# Target: Phosphate system positive regulatory protein PHO4, full length, GST-tagged (PHO4, Saccharomyces cerevisiae, UniProt P07270, residues 1-312)
# Method: competition protein-binding microarray
# Form: double-stranded DNA, one strand shown
# Medium: in vitro
# Tested at: 2 µM
# Notes: whole 60-bp probe, lowest competitor level
# With: Cbf1 competitor, 0.05 µM
# Reading: higher = stronger binding
# Constant ends, left off below: … GTCTTGATTCGCTTGACGCTGCTG
# Residues (chain): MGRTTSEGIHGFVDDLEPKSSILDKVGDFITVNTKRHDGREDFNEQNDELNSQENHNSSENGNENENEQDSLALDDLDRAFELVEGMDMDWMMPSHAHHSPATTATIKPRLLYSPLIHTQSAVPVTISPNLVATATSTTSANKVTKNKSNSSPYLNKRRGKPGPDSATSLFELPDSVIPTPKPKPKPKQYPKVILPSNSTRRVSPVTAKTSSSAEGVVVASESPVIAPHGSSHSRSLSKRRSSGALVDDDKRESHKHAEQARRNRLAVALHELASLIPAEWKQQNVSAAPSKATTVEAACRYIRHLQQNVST
Strand,fluorescence intensity
CGTCCTAGTGATTGGCGAGTGGGTGCCATGAGGAAG,6270 a.u.
TGCGCAACAACTTGCGTAGTGGGTGTATGTCTAGAA,5200 a.u.
GATACCAGGAATGTAACCGTGACGGTCAGCATAATC,5210 a.u.
CGGGGTTAAGTTTGTCACAGAACTTGCTTGCAGCAG,3230 a.u.
CTTCTGTAAATTTTTCACGTGAATTGACGCGCCCCG,7120 a.u.
TTGGTAGAATCTTTGCATGTGTGAGGTATGAATATT,8530 a.u.
TGGACCTGGCATACTACCGTGCCAGTAAACGTAGGA,5340 a.u.
TGCTATTTATAGACGCGCGTGTCGGAATCAGGAAGC,10100 a.u.
AAATTACTAAGTTGCGAGGTGGGTGACGCCGTATGA,4030 a.u.
TGCGCAACAACTTGAGGCGTGGGTGTATGTCTAGAA,9370 a.u.
TGCGCAACAACTTTTCACGTGGTGTTATGTCTAGAA,13300 a.u.
CACCAATTCCCAGAGCACATGATGCCTCCACGGAAT,11300 a.u.
CATACCCAACCTTGTAGAGTGGGTGAAGATATTTGT,3720 a.u.
CTTTCCCGATCTTGTGCCGTGGGTGTAGCACATTTG,6340 a.u.
CATACCCAACCTTGACCCGTGGGTGAAGATATTTGT,10900 a.u.
CTTCTGTAAATTTGACCGGTGGGTGGACGCGCCCCG,3890 a.u.
GAAATGGCAATGAAAGCCGTGCAATCAGAAACAAAC,6270 a.u.
AGGATGAGGAGGAGTTAGCAGAGGTATTCGCTAAGC,3010 a.u.
AAAGCGGTAATTTGAGAAGTGGGTGCAGATATCTAT,4100 a.u.

# Sample 4
# Target: Ras GTPase-activating protein-binding protein 1, C-terminal RGG region (G3BP1, Homo sapiens, UniProt Q13283)
# Chain of UniProt Q13283 (whole entry, looked up): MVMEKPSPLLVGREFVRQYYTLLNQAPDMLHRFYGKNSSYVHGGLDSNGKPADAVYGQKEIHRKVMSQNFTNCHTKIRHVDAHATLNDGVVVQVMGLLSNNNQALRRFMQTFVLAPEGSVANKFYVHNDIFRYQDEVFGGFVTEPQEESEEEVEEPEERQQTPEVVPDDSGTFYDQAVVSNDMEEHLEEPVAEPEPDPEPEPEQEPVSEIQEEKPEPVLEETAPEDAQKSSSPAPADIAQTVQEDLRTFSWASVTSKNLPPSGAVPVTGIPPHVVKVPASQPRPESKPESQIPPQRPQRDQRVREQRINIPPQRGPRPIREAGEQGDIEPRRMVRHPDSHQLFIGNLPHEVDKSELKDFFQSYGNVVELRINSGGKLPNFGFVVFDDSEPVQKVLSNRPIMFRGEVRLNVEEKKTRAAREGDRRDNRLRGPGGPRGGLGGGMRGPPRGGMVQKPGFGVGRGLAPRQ
# Method: RNA Bind-n-Seq
# Form: RNA
# Medium: in vitro
# Tested at: 1 µM
# Notes: whole 134-nt RNA, ends assumed
# With: 150 mM KCl
# Baseline: input library
# Reading: higher = stronger binding
# Constant ends, left off below: GGGAGUUCUACAGUCCGACGAUC … UGGAAUUCUCGGGUGUCAAGG
Strand,log2 enrichment
GCAGGAAGUAAAAACAAAAAAAAAUGCUUCGGAUAGUGGCAGGGGUGGGGGUUGCUAAGGAAAGGGUGGGAUGGGAGUGGGUAAAGAGUU,1.91
CUGUGCUACACAUCGUAUGUACCGAAUCGGGGCCCCCCGGGCCCCCCGGGGCCCCCCGGGGAAAGUAUUAUGUUACGCCGUUCGGAUCUG,-2.15
GUCCUGUGCUACACAUCGUAUGUACCGAAUCGGGGUGGGGAAAGGGGUUUUUUUGGGGAAAGUAUUAUGUUACGCCGUUCGGAUCUGCAC,2.32
CCUCAAGUCCUGUGCUACACAUCGUAUGUACCGAAUCGGGAGGGGAGGGAGGAAAGUAUUAUGUUACGCCGUUCGGAUCUGCACUUCCAG,0.49
CAAGUCCUGUGCUACACAUCGUAUGUACCGAAUCGGGGAAAGGGGAGGGGAGGGGAAAGUAUUAUGUUACGCCGUUCGGAUCUGCACUUC,3.25
GUCCUGUGCUACACAUCGUAUGUACCGAAUCGGGGUUUUUGGGUUUUUGGGGUUUUUGGAAAGUAUUAUGUUACGCCGUUCGGAUCUGCA,-0.764
CAAGUCCUGUGCUACACAUCGUAUGUACCGAAUCGGGAAAGGAAAGGGAAAGGGGAAAGUAUUAUGUUACGCCGUUCGGAUCUGCACUUC,-0.829
UAACUUUAGAGGAGGAUCUGAUGGAUAUGGCAGUGGACGUGGAUUUGGGGAUGGCUAUAAUGGGUAUUGAGGAGGACCUGGAGGUGGCAA,-0.896
CAAGUCCUGUGCUACACAUCGUAUGUACCGAAUCGGGGAAGGGGAAGGGAAGGGGAAAGUAUUAUGUUACGCCGUUCGGAUCUGCACUUC,2.79

# Excerpt of the above (sample 3):
Strand,fluorescence intensity
GATACCAGGAATGTAACCGTGACGGTCAGCATAATC,5210 a.u.
CTTCTGTAAATTTGACCGGTGGGTGGACGCGCCCCG,3890 a.u.
TGCGCAACAACTTGAGGCGTGGGTGTATGTCTAGAA,9370 a.u.
